Experimental data of several laboratories.
Protocols differ between the studies behind these lines. Numbers after ± are the reported error.
DDR1: Epithelial discoidin domain-containing receptor 1 (DDR1, Homo sapiens, UniProt Q08345)
Sequence of UniProt Q08345 (whole entry, looked up): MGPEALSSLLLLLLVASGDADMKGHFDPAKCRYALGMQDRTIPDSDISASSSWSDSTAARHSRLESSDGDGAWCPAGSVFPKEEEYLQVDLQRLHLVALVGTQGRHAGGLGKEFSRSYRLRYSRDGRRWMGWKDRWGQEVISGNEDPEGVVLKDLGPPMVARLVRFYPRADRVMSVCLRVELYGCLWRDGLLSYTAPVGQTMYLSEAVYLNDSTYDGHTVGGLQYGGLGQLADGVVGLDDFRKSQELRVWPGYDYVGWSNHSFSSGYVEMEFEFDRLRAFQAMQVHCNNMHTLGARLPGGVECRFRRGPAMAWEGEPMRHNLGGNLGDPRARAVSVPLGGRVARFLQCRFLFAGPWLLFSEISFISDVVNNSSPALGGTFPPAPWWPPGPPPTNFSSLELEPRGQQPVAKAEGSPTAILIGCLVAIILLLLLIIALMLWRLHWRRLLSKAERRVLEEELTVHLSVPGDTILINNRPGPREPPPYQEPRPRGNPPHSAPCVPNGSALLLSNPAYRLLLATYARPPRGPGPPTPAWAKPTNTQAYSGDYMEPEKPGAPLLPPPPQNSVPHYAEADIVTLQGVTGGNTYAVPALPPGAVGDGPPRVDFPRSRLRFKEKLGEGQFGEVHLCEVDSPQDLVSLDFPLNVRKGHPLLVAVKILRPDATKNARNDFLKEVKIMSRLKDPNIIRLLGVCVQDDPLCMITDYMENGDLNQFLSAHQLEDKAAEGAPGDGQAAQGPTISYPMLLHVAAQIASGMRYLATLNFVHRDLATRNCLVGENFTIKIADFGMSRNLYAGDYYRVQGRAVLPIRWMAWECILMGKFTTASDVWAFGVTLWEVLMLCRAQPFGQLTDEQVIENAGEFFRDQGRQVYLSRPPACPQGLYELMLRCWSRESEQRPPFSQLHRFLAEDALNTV
UGT1A4: UDP-glucuronosyltransferase 1A4 (UGT1A4, Homo sapiens, UniProt P22310)
Sequence of UniProt P22310 (whole entry, looked up): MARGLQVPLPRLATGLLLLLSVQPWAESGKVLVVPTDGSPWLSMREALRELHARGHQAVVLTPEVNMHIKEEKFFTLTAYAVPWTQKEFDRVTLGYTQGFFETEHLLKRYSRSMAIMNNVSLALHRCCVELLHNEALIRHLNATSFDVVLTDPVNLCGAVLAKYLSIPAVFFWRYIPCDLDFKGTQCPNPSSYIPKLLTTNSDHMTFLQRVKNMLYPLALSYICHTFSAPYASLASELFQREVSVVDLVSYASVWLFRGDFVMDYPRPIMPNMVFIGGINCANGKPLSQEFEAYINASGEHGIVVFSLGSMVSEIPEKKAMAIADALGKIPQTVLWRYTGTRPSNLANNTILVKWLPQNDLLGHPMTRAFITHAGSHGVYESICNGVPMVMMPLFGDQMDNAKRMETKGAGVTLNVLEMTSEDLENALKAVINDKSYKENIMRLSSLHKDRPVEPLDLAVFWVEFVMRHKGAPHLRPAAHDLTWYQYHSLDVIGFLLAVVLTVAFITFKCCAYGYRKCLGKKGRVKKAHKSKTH
Sequence of UniProt Q9BXA7 (whole entry, looked up): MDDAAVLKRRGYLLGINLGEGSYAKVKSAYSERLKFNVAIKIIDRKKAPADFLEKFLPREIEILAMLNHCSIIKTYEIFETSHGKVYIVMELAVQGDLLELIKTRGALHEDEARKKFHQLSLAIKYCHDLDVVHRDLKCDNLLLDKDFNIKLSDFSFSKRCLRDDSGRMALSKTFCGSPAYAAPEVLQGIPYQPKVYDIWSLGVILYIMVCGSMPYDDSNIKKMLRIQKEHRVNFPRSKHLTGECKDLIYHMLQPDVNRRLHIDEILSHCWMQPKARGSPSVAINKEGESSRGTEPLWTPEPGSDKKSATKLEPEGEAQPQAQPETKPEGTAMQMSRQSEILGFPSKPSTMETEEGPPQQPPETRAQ
Sequence of UniProt Q9P1W9 (whole entry, looked up): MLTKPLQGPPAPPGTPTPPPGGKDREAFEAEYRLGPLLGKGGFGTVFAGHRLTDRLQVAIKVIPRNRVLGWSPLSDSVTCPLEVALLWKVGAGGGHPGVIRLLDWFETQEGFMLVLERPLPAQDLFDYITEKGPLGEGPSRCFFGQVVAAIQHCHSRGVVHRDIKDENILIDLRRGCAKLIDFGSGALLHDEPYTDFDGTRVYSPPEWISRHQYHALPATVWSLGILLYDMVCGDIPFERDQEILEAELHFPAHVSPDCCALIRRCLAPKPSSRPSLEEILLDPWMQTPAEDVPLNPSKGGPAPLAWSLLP
Sequence of UniProt P48067 (whole entry, unmodified, looked up): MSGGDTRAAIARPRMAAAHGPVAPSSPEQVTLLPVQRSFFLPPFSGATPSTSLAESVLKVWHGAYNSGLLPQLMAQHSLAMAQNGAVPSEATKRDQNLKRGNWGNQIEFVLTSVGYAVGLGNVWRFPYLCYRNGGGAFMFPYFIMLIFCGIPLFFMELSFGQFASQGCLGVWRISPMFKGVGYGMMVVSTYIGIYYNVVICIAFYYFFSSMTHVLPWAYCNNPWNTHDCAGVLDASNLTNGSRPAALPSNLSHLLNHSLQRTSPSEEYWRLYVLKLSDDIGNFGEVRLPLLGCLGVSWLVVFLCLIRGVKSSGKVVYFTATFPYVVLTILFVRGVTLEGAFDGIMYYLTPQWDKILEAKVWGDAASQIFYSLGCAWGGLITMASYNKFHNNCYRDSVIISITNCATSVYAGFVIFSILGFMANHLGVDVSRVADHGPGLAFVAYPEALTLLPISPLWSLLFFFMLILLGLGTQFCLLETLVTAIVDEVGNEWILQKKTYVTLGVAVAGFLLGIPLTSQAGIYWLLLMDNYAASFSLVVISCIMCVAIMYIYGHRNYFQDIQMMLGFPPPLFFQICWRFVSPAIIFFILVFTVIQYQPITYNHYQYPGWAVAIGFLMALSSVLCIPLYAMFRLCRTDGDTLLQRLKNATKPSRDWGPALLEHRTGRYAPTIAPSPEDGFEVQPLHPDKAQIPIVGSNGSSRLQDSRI
Sequence of UniProt Q92626 (whole entry, looked up): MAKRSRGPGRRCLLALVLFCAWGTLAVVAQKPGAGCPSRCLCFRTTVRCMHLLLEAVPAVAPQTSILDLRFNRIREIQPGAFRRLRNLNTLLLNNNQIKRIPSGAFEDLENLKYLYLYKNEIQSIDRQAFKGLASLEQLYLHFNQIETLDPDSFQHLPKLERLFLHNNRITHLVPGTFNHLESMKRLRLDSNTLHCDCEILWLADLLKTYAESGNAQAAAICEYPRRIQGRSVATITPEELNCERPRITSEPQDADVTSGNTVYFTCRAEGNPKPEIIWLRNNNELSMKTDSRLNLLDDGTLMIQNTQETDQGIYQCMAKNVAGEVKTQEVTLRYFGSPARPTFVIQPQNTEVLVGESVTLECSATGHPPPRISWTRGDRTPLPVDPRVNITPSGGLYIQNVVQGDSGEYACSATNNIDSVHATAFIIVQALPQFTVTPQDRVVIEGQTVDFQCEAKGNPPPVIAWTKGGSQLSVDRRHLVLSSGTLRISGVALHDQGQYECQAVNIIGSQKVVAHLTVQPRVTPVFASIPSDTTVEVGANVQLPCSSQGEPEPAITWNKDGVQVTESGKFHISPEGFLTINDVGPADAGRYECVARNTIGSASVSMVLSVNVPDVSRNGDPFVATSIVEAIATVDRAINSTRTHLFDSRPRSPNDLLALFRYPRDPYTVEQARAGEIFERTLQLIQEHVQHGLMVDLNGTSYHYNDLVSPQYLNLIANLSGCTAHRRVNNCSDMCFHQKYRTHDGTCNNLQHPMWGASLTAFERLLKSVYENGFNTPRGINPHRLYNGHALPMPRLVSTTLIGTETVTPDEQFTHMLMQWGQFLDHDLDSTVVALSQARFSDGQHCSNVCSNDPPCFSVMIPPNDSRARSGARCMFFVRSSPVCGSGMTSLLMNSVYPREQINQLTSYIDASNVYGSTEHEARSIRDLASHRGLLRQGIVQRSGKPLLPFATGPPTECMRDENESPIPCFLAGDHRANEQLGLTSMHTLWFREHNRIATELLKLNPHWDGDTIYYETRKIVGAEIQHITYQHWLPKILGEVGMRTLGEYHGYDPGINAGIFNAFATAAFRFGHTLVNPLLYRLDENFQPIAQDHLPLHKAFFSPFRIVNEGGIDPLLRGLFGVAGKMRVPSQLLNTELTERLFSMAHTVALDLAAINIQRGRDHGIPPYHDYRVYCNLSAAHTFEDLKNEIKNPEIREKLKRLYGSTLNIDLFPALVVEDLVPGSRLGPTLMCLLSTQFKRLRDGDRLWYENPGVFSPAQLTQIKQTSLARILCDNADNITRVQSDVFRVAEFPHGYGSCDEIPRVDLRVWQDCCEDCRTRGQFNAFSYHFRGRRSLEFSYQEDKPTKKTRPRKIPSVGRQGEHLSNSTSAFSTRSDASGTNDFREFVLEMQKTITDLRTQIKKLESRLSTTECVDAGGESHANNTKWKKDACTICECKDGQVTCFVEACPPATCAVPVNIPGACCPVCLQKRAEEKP
Sequence of UniProt O94921 (whole entry, looked up): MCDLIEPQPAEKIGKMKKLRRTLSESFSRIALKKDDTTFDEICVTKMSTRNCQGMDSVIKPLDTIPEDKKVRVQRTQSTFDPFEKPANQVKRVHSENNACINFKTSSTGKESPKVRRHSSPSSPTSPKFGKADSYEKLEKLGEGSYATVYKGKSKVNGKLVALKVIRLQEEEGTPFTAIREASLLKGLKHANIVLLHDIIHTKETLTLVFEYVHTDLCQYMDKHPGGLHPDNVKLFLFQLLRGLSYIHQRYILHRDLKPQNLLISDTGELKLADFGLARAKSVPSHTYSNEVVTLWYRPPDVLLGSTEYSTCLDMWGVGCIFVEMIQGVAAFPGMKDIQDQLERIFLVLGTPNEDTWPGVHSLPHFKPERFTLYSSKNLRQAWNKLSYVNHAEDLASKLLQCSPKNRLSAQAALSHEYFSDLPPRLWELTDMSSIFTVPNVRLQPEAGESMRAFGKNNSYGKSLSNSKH

c1cnc2ccc(Nc3nc(NC4CC4)c4nc[nH]c4n3)cc2c1 — remaining activity (PIM2 (Homo sapiens, UniProt Q9P1W9); kinase activity, inhibitor, SelectScreen kinase profiling; 1 µM; relative to: control): 102%
CNCC(=O)O — remaining activity (SLC6A9 (Homo sapiens, UniProt P48067, G373S); glycine uptake, inhibitor; 2000 µM, added: [3H]glycine; relative to: no inhibitor): 105%
Nc1ccn([C@@H]2O[C@H](CO)[C@@H](O)C2(F)F)c(=O)n1 — viability (OCI-Ly1; 0.5 µM, 120 h): 3.14%
C=CC(=O)N1CCC[C@@H](n2nc(-c3ccc(Oc4ccccc4)cc3)c3c(N)ncnc32)C1 — remaining activity (MAPK3 (Homo sapiens, UniProt P27361); 1 µM): 13.3%
Cc1cc(NC(=O)c2cccc(NC(=O)/C=C/CN(C)C)c2)ccc1Nc1nccc(-c2cccnc2)n1 — remaining activity (MAPK8 (Homo sapiens, UniProt P45983); enzyme activity, inhibitor; 0.5487 µM, 0 h, unit not given, added: GSH 10 mM pre-incubation; relative to: vehicle): 0.149
COc1cc(Nc2ncc3c(n2)-c2ccc(Cl)cc2C(c2c(F)cccc2OC)=NC3)ccc1C(=O)O — remaining activity (CAMK2A; kinase activity; 1 µM): 5%
C=CC(=O)N1CCC[C@@H](n2nc(-c3ccc(Oc4ccccc4)cc3)c3c(N)ncnc32)C1 — remaining activity (DDR1; kinase activity, inhibitor, HotSpot radiometric; 100 nM, added: ATP 10 µM): 70.9 ± 1.6%
C[C@H]1[C@H](OC(=O)CCC(=O)O)O[C@@H]2O[C@@]3(C)CC[C@H]4[C@H](C)CC[C@@H]1[C@@]24OO3 — remaining activity (Non-structural polyprotein pORF1, helicase domain (Hepatitis E virus genotype 1, UniProt P33424); ATPase activity, inhibitor, colorimetric; 19.5 µM, preincubation 30 min, added: ATP 200 µM; relative to: untreated): 79.4%
CN(C)CC#Cc1ccc2[nH]c3c(c2c1)-c1nc(N)ncc1CCC3 — remaining activity (TSSK1B (Homo sapiens, UniProt Q9BXA7); kinase activity, inhibitor, radiometric; 1 µM, added: ATP at Km): 82%
COc1cc(N2CCN(C)CC2)ccc1Nc1nc(N)n(C(=O)NCc2c(Cl)cccc2Cl)n1 — remaining activity (EGFR (Homo sapiens, UniProt P00533, del752-759); enzyme activity; 10 µM; relative to: control): 18%
C[C@@H]1CC[C@@]2(OC1)O[C@H]1C[C@H]3[C@@H]4CC[C@H]5C[C@@H](O)CC[C@]5(C)[C@H]4CC(=O)[C@]3(C)[C@H]1[C@@H]2C — remaining activity (UGT1A4; glucuronidation, inhibitor; human liver microsomes; 10 µM, added: probe substrate 50 µM; relative to: no inhibitor): ~35%
FC(F)c1nc2ccccc2n1-c1nc(N2CCOCC2)nc(N2CCOCC2)n1 — remaining activity (VEGFR; enzyme activity; 10 µM): 87%
O=c1cc(-c2ccc(O)c(-c3c(O)cc(O)c4c(=O)cc(-c5ccc(O)cc5)oc34)c2)oc2cc(O)cc(O)c12 — remaining activity (UGT1A4; glucuronidation, inhibitor; human liver microsomes; 10 µM, added: probe substrate 50 µM; relative to: no inhibitor): ~37%
Cc1cc(Nc2cc(N3CCN(C)CC3)nc(Sc3ccc(NC(=O)C4CC4)cc3)n2)[nH]n1 — remaining activity (DAPK2 (Homo sapiens, UniProt Q9UIK4); kinase activity, KinaseProfiler; 0.03 µM, species human; relative to: control): 99%
COc1ccc(F)cc1C(=O)NCc1ccc(-c2nn([C@@H](C)C(F)(F)F)c(N)c2C(N)=O)cc1 — remaining activity (DDR1; kinase activity, inhibitor, HotSpot radiometric; 1000 nM, added: ATP at Km): 87.8 ± 3.7%
COc1cc2c(NC3CCN(C)CC3)nc(N3CCCN(C)CC3)nc2cc1OCCCN(C)C — viability (OCI-Ly1; 0.5 µM, 120 h): 165%
O=C(O)C[C@H](O)C[C@H](O)/C=C/c1c(C2CC2)nc2ccccc2c1-c1ccc(F)cc1 — apoptotic cells (COS-7; 3 µM, 24 h, 0.1% DMSO, unit not given; relative to: vehicle control): 0.9 ± 0.23
CC(C)OCCn1c(=S)[nH]c(=O)c2[nH]ccc21 — remaining activity (Myeloperoxidase (MPO, Homo sapiens, UniProt P05164); LDL lipid peroxidation, inhibitor, cholesteryl ester hydroperoxide; 0.0412 µM): 105%
O=C(O)c1ccc(Nc2ncc3c(n2)-c2ccc(Cl)cc2C(c2c(F)cccc2F)=NC3)cc1 — remaining activity (Ros(h); kinase activity; 1 µM): 88%
COc1cc(N2CCN(C)CC2)ccc1Nc1nc(N)n(C(=S)NCc2c(Cl)cccc2Cl)n1 — remaining activity (CDK14 (Homo sapiens, UniProt O94921); enzyme activity; 10 µM; relative to: control): 26%
O=C(NC1CCC1)c1ccc2nc(-c3cccc(NS(=O)(=O)NCCN4CCCCC4)c3)cn2c1 — remaining activity (MAPKAPK2 (Homo sapiens, UniProt P49137); enzyme activity; 10 µM): 98%
CNc1ncc2c(/C=C/C(=O)N3CCC(OC)CC3)nn(Cc3cccc(C(F)(F)F)c3)c2n1 — remaining activity (EPHA6 (Homo sapiens, UniProt Q9UF33); kinase activity, inhibitor; 1 µM; relative to: untreated control): 92%
COc1cc(-c2cncc3c2CN(C)Cc2cc(N4CCNCC4)ccc2-3)cc(OC)c1OC — remaining activity (IKBKB (Homo sapiens, UniProt O14920); kinase activity; 1 µM, human enzyme, added: ATP 10 µM; relative to: DMSO control): 104%
COc1cc(F)ccc1-c1ncnc(Nc2cccc(C[S@](C)(=N)=O)c2)n1 — remaining activity (RIPK2 (Homo sapiens, UniProt O43353); kinase activity; 10 µM, added: 10 µM ATP): 87%
O=C1NC(=O)/C(=C/c2ccc(-c3ccc(F)cc3O)o2)S1 — remaining activity (MAPK15 (Homo sapiens, UniProt Q8TD08); enzyme activity; 10 µM): 10%
NC/C(=C\F)COc1cccc(Cn2c(=S)[nH]c(=O)c3[nH]cnc32)c1 — remaining activity (Peroxidasin homolog (PXDN, Homo sapiens, UniProt Q92626); Amplex UltraRed; 20 µM, mean of replicates; relative to: control): 23.1%
C=CC(=O)N1CCC([C@@H]2CCNc3c(C(N)=O)c(-c4ccc(Oc5ccccc5)cc4)nn32)CC1 — remaining activity (DDR1; kinase activity, inhibitor, HotSpot radiometric; 100 nM, added: ATP 10 µM): 108 ± 0.8%
C=CC[C@@H]1c2ccc(OC)c(OC)c2CN2CCc3cc4c(cc3[C@H]12)OCO4 — remaining activity (P2X purinoceptor 7 (Ailuropoda melanoleuca, UniProt G1M6C4); ATP-evoked current, inhibitor, whole-cell patch clamp; HEK293 transfected; 0.1 µM, wild type): 99.7%

Repeated from above:
COc1cc(-c2cncc3c2CN(C)Cc2cc(N4CCNCC4)ccc2-3)cc(OC)c1OC — remaining activity (IKBKB (Homo sapiens, UniProt O14920); kinase activity; 1 µM, human enzyme, added: ATP 10 µM; relative to: DMSO control): 104%
O=C(O)c1ccc(Nc2ncc3c(n2)-c2ccc(Cl)cc2C(c2c(F)cccc2F)=NC3)cc1 — remaining activity (Ros(h); kinase activity; 1 µM): 88%
COc1cc2c(NC3CCN(C)CC3)nc(N3CCCN(C)CC3)nc2cc1OCCCN(C)C — viability (OCI-Ly1; 0.5 µM, 120 h): 165%
CN(C)CC#Cc1ccc2[nH]c3c(c2c1)-c1nc(N)ncc1CCC3 — remaining activity (TSSK1B (Homo sapiens, UniProt Q9BXA7); kinase activity, inhibitor, radiometric; 1 µM, added: ATP at Km): 82%
